# Assay results pooled from the literature.
# A part holds a random share of what one study measured.

# Study 1 — method: aptamer microarray, sandwich; molecule type: DNA with 2'F-ANA; matrix: in vitro; concentration: 200 nM; with: Cy3 exosite-II aptamer, 400 nM; direction: higher = stronger binding
# Target: Prothrombin, mature alpha-thrombin (F2, Homo sapiens, UniProt P00734)
# Notes: whole 15-mer aptamer, many near background
Strand,mean fluorescence intensity
GGTTGGTGTGGTTGG (2'F-ANA at 1 2 3 7 8 11 14 15),83.7 a.u.
GGTTGGTGTGGTTGG (2'F-ANA at 1 2 7 8 9 11 12 13 15),254 a.u.
GGTTGGTGTGGTTGG (2'F-ANA at 1 4 7 8 9 14 15),71.4 a.u.
GGTTGGTGTGGTTGG (2'F-ANA at 1 2 4 5 9 10 11 12 14 15),51.4 a.u.

# Study 2 — method: protein binding microarray; molecule type: double-stranded DNA, one strand shown; matrix: in vitro; concentration: not given; baseline: not given; direction: higher = stronger binding
# Target: Histone acetyltransferase KAT6A, both winged helices, GST fusion (KAT6A, Homo sapiens, UniProt Q92794, residues 1-181)
# Notes: 8-mer, flanks averaged, mean of 2 arrays, mostly near background
# Residues (chain): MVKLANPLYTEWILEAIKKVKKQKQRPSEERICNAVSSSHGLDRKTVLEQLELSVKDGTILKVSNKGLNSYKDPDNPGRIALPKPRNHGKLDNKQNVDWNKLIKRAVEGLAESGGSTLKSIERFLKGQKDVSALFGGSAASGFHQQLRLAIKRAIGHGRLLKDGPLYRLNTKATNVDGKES
Strand,E-score
ACAATCAA,-0.113
AGGGTAAA,-0.203
GTATTAAA,-0.0339
TAGACCGA,-0.00036

# Study 3 — method: universal PBM; molecule type: double-stranded DNA, one strand shown; matrix: in vitro; concentration: not given; direction: higher = stronger binding
# Target: Sal-like protein 4, full length isoform B (SALL4, Homo sapiens, UniProt Q9UJQ4-2, residues 1-616)
# Notes: 8-mer, flanks averaged, mean of replicates
# Target sequence (chain): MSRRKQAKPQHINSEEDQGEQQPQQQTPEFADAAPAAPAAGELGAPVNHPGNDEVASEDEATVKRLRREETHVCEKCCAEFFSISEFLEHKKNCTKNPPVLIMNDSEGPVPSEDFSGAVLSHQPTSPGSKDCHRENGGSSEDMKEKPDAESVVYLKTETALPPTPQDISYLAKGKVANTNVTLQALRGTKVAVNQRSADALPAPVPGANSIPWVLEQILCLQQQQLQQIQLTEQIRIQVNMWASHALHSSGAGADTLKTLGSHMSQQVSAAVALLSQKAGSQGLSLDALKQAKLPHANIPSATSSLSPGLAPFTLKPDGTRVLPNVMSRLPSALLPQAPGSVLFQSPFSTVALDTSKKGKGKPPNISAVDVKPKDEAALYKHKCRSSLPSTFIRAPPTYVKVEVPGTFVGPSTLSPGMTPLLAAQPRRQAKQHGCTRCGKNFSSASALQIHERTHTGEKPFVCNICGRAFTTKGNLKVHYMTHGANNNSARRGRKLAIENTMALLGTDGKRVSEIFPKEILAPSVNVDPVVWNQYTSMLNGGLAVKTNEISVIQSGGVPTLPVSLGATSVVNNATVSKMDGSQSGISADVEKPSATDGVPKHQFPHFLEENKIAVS
Strand,E-score
GATCTACC,-0.116
CATTGAGC,-0.0614
AATCGCGC,-0.0312
AGGAAATC,-0.0274

# Further values, each from its own experiment
Molecule,target,test,test system,conditions,how to read,measurement,result
"PhoQ, residues 284 288 289 292 302 303 TTSMTC","PhoP, residues 12 14 15 18 19 GQALL (Escherichia coli, UniProt P23836)","Sort-seq, refers to: YFP reporter",E. coli,"PhoQ-PhoP variant library, with: 10 µM Mg2+","baseline: high Mg2+ state, higher = stronger signaling",fold induction,17.6

# Some of these lines once more (study 1):
Strand,mean fluorescence intensity
GGTTGGTGTGGTTGG (2'F-ANA at 1 2 3 7 8 11 14 15),83.7 a.u.
GGTTGGTGTGGTTGG (2'F-ANA at 1 4 7 8 9 14 15),71.4 a.u.
